{"data": "Measurements gathered from unrelated publications", "partner": "itself", "B1": "Pah (Rattus norvegicus, UniProt P04176); sequence looked up; chain MAAVVLENGVLSRKLSDFGQETSYIEDNSNQNGAISLIFSLKEEVGALAKVLRLFEENDINLTHIESRPSRLNKDEYEFFTYLDKRTKPVLGSIIKSLRNDIGATVHELSRDKEKNTVPWFPRTIQELDRFANQILSYGAELDADHPGFKDPVYRARRKQFADIAYNYRHGQPIPRVEYTEEEKQTWGTVFRTLKALYKTHACYEHNHIFPLLEKYCGFREDNIPQLEDVSQFLQTCTGFRLRPVAGLLSSRDFLGGLAFRVFHCTQYIRHGSKPMYTPEPDICHELLGHVPLFSDRSFAQFSQEIGLASLGAPDEYIEKLATIYWFTVEFGLCKEGDSIKAYGAGLLSSFGELQYCLSDKPKLLPLELEKTACQEYSVTEFQPLYYVAESFSDAKEKVRTFAATIPRPFSVRYDPYTQRVEVLDNTQQLKILADSINSEVGILCNALQKIKS", "B2": "ccmK2 1-102 (Synechococcus elongatus, UniProt Q03511); chain MPIAVGMIETLGFPAVVEAADAMVKAARVTLVGYEKIGSGRVTVIVRGDVSEVQASVSAGLDSAKRVAGGEVLSHHIIARPHENLEYVLPIRYTEAVEQFRM", "B3": "SART3 94-877 (Homo sapiens, UniProt Q15020); sequence looked up; chain NQLEIERLEEQLSINVYDYNCHVDLIRLLRLEGELTKVRMARQKMSEIFPLTEELWLEWLHDEISMAQDGLDREHVYDLFEKAVKDYICPNIWLEYGQYSVGGIGQKGGLEKVRSVFERALSSVGLHMTKGLALWEAYREFESAIVEAARLEKVHSLFRRQLAIPLYDMEATFAEYEEWSEDPIPESVIQNYNKALQQLEKYKPYEEALLQAEAPRLAEYQAYIDFEMKIGDPARIQLIFERALVENCLVPDLWIRYSQYLDRQLKVKDLVLSVHNRAIRNCPWTVALWSRYLLAMERHGVDHQVISVTFEKALNAGFIQATDYVEIWQAYLDYLRRRVDFKQDSSKELEELRAAFTRALEYLKQEVEERFNESGDPSCVIMQNWARIEARLCNNMQKARELWDSIMTRGNAKYANMWLEYYNLERAHGDTQHCRKALHRAVQCTSDYPEHVCEVLLTMERTEGSLEDWDIAVQKTETRLARVNEQRMKAAEKEAALVQQEEEKAEQRKRARAEKKALKKKKKIRGPEKRGADEDDEKEWGDDEEEQPSKRRRVENSIPAAGETQNVEVAAGPAGKCAAVDVEPPSKQKEKAASLKRDMPKVLHDSSKDSITVFVSNLPYSMQEPDTKLRPLFEACGEVVQIRPIFSNRGDFRGYCYVEFKEEKSALQALEMDRKSVEGRPMFVSPCVDKSKNPDFKVFRYSTSLEKHKLFISGLPFSCTKEELEEICKAHGTVKDLRLVTNRAGKPKGLAYVEYENESQASQAVMKMDGMTIKENIIKVAISN", "B4": "RPRD1A 134-312 (Homo sapiens, UniProt Q96P16); chain KPRKRTYEQIKVDENENCSSLGSPSEPPQTLDLVRALQDLENAASGDAAVHQRIASLPVEVQEVSLLDKITDKESGERLSKMVEDACMLLADYNGRLAAEIDDRKQLTRMLADFLRCQKEALAEKEHKLEEYKRKLARVSLVRKELRSRIQSLPDLSRLPNVTGSHMHLPFAGDIYSED", "B5": "Cas11 (Escherichia coli, UniProt P76632); sequence looked up; chain MADEIDAMALYRAWQQLDNGSCAQIRRVSEPDELRDIPAFYRLVQPFGWENPRHQQALLRMVFCLSAGKNVIRHQDKKSEQTTGISLGRALANSGRINERRIFQLIRADRTADMVQLRRLLTHAEPVLDWPLMARMLTWWGKRERQQLLEDFVLTTNKNA", "B6": "ACAT1 35-427 Y219F (Homo sapiens, UniProt P24752); pY407; chain SKPTLKEVVIVSATRTPIGSFLGSLSLLPATKLGSIAIQGAIEKAGIPKEEVKEAYMGNVLQGGEGQAPTRQAVLGAGLPISTPCTTINKVCASGMKAIMMASQSLMCGHQDVMVAGGMESMSNVPYVMNRGSTPYGGVKLEDLIVKDGLTDVYNKIHMGSCAENTAKKLNIARNEQDAYAINSFTRSKAAWEAGKFGNEVIPVTVTVKGQPDVVVKEDEEYKRVDFSKVPKLKTVFQKENGTVTAANASTLNDGAAALVLMTADAAKRLNVTPLARIVAFADAAVEPIDFPIAPVYAASMVLKDVGLKKEDIAMWEVNEAFSLVVLANIKMLEIDPQKVNINGGAVSLGHPIGMSGARIVGHLTHALKQGEYGLASICNGGGGASAMLIQKL", "B7": "spo0J A232G (Bacillus subtilis, UniProt P26497); chain MAKGLGKGINALFNQVDLSEETVEEIKIADLRPNPYQPRKHFDDEALAELKESVLQHGILQPLIVRKSLKGYDIVAGERRFRAAKLAGLDTVPAIVRELSEALMREIALLENLQREDLSPLEEAQAYDSLLKHLDLTQEQLAKRLGKSRPHIANHLRLLTLPENIQQLIAEGTLSMGHGRTLLGLKNKNKLEPLVQKVIAEQLNVRQLEQLIQQLNQNVPRETKKKEPVKDGVLKERESYLQNYFGTTVNIKRQKKKGKIEIEFFSNEDLDRILELLSERES", "B8": "Tln1 2301-2541 (Mus musculus, UniProt P26039); chain PTVIAENELLGAAAAIEAAAKKLEQLKPRAKPKEADESLNFEEQILEAAKSIAAATSALVKAASAAQRELVAQGKVGAIPANALDDGQWSQGLISAARMVAAATNNLCEAANAAVQGHASQEKLISSAKQVAASTAQLLVACKVKADQDSEAMKRLQAAGNAVKRASDNLVKAAQKAAAFEDQENETVVVKEKMVGGIAQIIAAQEEMLRKERELEEARKKLAQIRQQQYKFLPSELRDEH", "B9": "clcA 1-465 C85A/H234C/I201A (Escherichia coli, UniProt P37019); chain MKTDTPSLETPQAARLRRRQLIRQLLERDKTPLAILFMAAVVGTLVGLAAVAFDKGVAWLQNQRMGALVHTADNYPLLLTVAFLASAVLAMFGYFLVRKYAPEAGGSGIPEIEGALEDQRPVRWWRVLPVKFFGGLGTLGGGMVLGREGPTVQIGGNIGRMVLDIFRLKGDEARHTLLATGAAAGLAAAFNAPLAGILFIAEEMRPQFRYTLISIKAVFIGVIMSTIMYRIFNCEVALIDVGKLSDAPLNTLWLYLILGIIFGIFGPIFNKWVLGMQDLLHRVHGGNITKWVLMGGAIGGLCGLLGFVAPATSGGGFNLIPIATAGNFSMGMLVFIFVARVITTLLCFSSGAPGGIFAPMLALGTVLGTAFGMVAVELFPQYHLEAGTFAIAGMGALLAASIRAPLTGIILVLEMTDNYQLILPMIITGLGATLLAQFTGGKPLYSAILARTLAKQEAEQLARSK", "B10": "RBKS A181K (Homo sapiens, UniProt Q9H477); sequence looked up; chain MAASGEPQRQWQEEVAAVVVVGSCMTDLVSLTSRLPKTGETIHGHKFFIGFGGKGANQCVQAARLGAMTSMVCKVGKDSFGNDYIENLKQNDISTEFTYQTKDAATGTASIIVNNEGQNIIVIVAGANLLLNTEDLRAAANVISRAKVMVCQLEITPATSLEALTMARRSGVKTLFNPAPKIADLDPQFYTLSDVFCCNESEAEILTGLTVGSAADAGEAALVLLKRGCQVVIITLGAEGCVVLSQTEPEPKHIPTEKVKAVDTTGAGDSFVGALAFYLAYYPNLSLEDMLNRSNFIAAVSVQAAGTQSSYPYKKDLPLTLF", "B11": "TBK1 1-657 D135N (Homo sapiens, UniProt Q9UHD2); sequence looked up; chain MQSTSNHLWLLSDILGQGATANVFRGRHKKTGDLFAIKVFNNISFLRPVDVQMREFEVLKKLNHKNIVKLFAIEEETTTRHKVLIMEFCPCGSLYTVLEEPSNAYGLPESEFLIVLRDVVGGMNHLRENGIVHRNIKPGNIMRVIGEDGQSVYKLTDFGAARELEDDEQFVSLYGTEEYLHPDMYERAVLRKDHQKKYGATVDLWSIGVTFYHAATGSLPFRPFEGPRRNKEVMYKIITGKPSGAISGVQKAENGPIDWSGDMPVSCSLSRGLQVLLTPVLANILEADQEKCWGFDQFFAETSDILHRMVIHVFSLQQMTAHKIYIHSYNTATIFHELVYKQTKIISSNQELIYEGRRLVLEPGRLAQHFPKTTEENPIFVVSREPLNTIGLIYEKISLPKVHPRYDLDGDASMAKAITGVVCYACRIASTLLLYQELMRKGIRWLIELIKDDYNETVHKKTEVVITLDFCIRNIEKTVKVYEKLMKINLEAAELGEISDIHTKLLRLSSSQGTIETSLQDIDSRLSPGGSLADAWAHQEGTHPKDRNVEKLQVLLNCMTEIYYQFKKDKAERRLAYNEEQIHKFDKQKLYYHATKAMTHFTDECVKKYEAFLNKSEEWIRKMLHLRKQLLSLTNQCFDIEEEVSKYQEYTNELQET", "B12": "xseA H238A (Escherichia coli, UniProt P04994); sequence looked up; chain MLPSQSPAIFTVSRLNQTVRLLLEHEMGQVWISGEISNFTQPASGHWYFTLKDDTAQVRCAMFRNSNRRVTFRPQHGQQVLVRANITLYEPRGDYQIIVESMQPAGEGLLQQKYEQLKAKLQAEGLFDQQYKKPLPSPAHCVGVITSKTGAALHDILHVLKRRDPSLPVIIYPAAVQGDDAPGQIVRAIELANQRNECDVLIVGRGGGSLEDLWSFNDERVARAIFTSRIPVVSAVGAETDVTIADFVADLRAPTPSAAAEVVSRNQQELLRQVQSTRQRLEMAMDYYLANRTRRFTQIHHRLQQQHPQLRLARQQTMLERLQKRMSFALENQLKRTGQQQQRLTQRLNQQNPQPKIHRAQTRIQQLEYRLAETLRAQLSATRERFGNAVTHLEAVSPLSTLARGYSVTTATDGNVLKKVKQVKAGEMLTTRLEDGWIESEVKNIQPVKKSRKKVH", "B13": "PAN1 689-1190 (Saccharomyces cerevisiae, UniProt P32521); sequence looked up; chain LLDNLKNQLKTEPTTTKEKPSFGKIDALSYKNNDDDVLPNYRNRRKVYSAKNEEQSSFSSPSAKSVNHSSSTLQTDDISVDKTVEKKTAKPKYAGFSREINLKNIASLENEIKNISNPENCYDSSIPSDLTSRFDAIIAKLPNLFNEISTIDNEITNAKIQLYRKKNPSSIIGSGPNGEITENDRKKAKSRALLRARMSALTGKSTESEDSLSMEDEQQSAEIKRIQQENGKNQEIIKDIRSSISDISASLKSTMTGSNMISNQEFERWEFGIGLEDGVREFLDDLKSNSNKSVTESSPFVPSSTPTPVDDRSSSPSYSQFKTAEERAAYLKEQAKKRMKEKLAKFDKNRRNVTQSSRSISSENSREQPQQIAGSSNLVEPRATPFQEEKYVEVAQPTQPVQSTQPVQPTQPVQPTQPVQPTQPVQPTQPVQPTQPVQNVYNAKQESDDEDEDDEEKRLQEELKRLKLKKKADKEKRLAALRKQIEDAQNESDEEETNGKDN", "UniProt Q94A41, sequence (whole entry, looked up)": "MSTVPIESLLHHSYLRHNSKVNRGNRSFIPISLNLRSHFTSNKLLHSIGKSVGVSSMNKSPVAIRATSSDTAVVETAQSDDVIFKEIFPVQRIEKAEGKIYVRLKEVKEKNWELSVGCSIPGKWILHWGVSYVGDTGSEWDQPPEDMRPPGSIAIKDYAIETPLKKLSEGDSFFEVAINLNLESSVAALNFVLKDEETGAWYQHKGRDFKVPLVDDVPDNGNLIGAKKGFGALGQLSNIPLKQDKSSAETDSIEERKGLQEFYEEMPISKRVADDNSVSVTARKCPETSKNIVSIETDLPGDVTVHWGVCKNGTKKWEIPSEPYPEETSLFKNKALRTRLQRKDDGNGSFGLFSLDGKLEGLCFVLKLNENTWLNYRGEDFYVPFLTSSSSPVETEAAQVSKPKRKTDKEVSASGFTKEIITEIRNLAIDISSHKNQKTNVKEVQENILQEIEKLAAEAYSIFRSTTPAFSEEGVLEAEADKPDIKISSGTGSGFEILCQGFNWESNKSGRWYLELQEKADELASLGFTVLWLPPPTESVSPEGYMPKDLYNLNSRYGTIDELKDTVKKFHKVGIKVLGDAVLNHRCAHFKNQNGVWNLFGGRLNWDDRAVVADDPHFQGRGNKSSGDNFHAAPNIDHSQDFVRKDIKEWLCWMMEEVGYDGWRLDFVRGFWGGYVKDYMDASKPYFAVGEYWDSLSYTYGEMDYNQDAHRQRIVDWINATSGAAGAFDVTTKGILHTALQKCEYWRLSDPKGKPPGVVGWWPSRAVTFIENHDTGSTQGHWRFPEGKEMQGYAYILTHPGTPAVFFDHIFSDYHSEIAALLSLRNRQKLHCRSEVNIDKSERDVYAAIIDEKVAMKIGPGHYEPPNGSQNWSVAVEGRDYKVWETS"}
{"Substance": "B1 (Pah)", "method": "native gel", "subunits per oligomer": 2}
{"Substance": "AMY3 mature (Arabidopsis thaliana, UniProt Q94A41)", "method": "SEC-MALS", "subunits per oligomer": 2}
{"Substance": "B2 (ccmK2 1-102)", "method": "SEC", "subunits per oligomer": 6}
{"Substance": "B3 (SART3 94-877)", "method": "SEC-MALS", "subunits per oligomer": 2}
{"Substance": "B4 (RPRD1A 134-312)", "method": "AUC", "temperature": "4 °C", "subunits per oligomer": 2}
{"Substance": "portal protein dodecamer (Staphylococcus phage 80alpha, UniProt A4ZFA8)", "method": "cryo-EM", "subunits per oligomer": 12}
{"Substance": "B5 (Cas11)", "method": "SEC", "subunits per oligomer": 2}
{"Substance": "B6 (ACAT1 35-427 Y219F)", "method": "native gel", "setting": "Y219F mutant", "subunits per oligomer": 4}
{"Substance": "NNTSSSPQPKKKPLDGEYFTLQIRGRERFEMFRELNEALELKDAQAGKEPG (TP53 310-360 (Homo sapiens, UniProt P04637); sequence looked up)", "method": "SEC", "subunits per oligomer": 4}
{"Substance": "B7 (spo0J A232G)", "method": "SEC-MALS", "subunits per oligomer": 2}
{"Substance": "B8 (Tln1 2301-2541)", "method": "SEC-MALS", "subunits per oligomer": 2}
{"Substance": "B9 (clcA 1-465 C85A/H234C/I201A)", "method": "SEC", "subunits per oligomer": 2}
{"Substance": "B10 (RBKS A181K)", "method": "mass photometry", "subunits per oligomer": 2}
{"Substance": "B11 (TBK1 1-657 D135N)", "method": "SEC-MALS", "subunits per oligomer": 2}
{"Substance": "B12 (xseA H238A)", "method": "mass photometry", "subunits per oligomer": 2}
{"Substance": "B13 (PAN1 689-1190)", "method": "SEC, sucrose gradient sedimentation", "subunits per oligomer": 2}
{"note": "Excerpt of the above:"}
{"Substance": "B5 (Cas11)", "method": "SEC", "subunits per oligomer": 2}
{"Substance": "B6 (ACAT1 35-427 Y219F)", "method": "native gel", "setting": "Y219F mutant", "subunits per oligomer": 4}
